Measurements from different studies.
Protocols differ between the studies behind these lines. Values joined by “and” are separate records of one study, mostly repeats; a detail may differ. Numbers after ± are the reported error.
Protein kinase 6: Protein kinase 6 (Plasmodium falciparum, UniProt Q8IDW1)
Aryl hydrocarbon receptor: Aryl hydrocarbon receptor (Danio rerio, UniProt Q9YGV3)
SET: Protein SET (SET, Homo sapiens, UniProt Q01105)
Sequence of UniProt Q01105 (whole entry, unmodified, looked up): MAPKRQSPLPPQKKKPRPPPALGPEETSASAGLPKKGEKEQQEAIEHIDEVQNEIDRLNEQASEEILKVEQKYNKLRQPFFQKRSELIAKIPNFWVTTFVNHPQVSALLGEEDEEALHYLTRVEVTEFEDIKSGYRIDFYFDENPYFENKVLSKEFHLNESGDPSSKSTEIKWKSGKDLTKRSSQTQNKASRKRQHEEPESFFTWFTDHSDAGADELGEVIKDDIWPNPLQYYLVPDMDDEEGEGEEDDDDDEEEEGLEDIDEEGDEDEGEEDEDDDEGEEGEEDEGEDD
CHRM1: Muscarinic acetylcholine receptor M1 (CHRM1, Homo sapiens, UniProt P11229)
Sequence of UniProt P11229 (whole entry, looked up): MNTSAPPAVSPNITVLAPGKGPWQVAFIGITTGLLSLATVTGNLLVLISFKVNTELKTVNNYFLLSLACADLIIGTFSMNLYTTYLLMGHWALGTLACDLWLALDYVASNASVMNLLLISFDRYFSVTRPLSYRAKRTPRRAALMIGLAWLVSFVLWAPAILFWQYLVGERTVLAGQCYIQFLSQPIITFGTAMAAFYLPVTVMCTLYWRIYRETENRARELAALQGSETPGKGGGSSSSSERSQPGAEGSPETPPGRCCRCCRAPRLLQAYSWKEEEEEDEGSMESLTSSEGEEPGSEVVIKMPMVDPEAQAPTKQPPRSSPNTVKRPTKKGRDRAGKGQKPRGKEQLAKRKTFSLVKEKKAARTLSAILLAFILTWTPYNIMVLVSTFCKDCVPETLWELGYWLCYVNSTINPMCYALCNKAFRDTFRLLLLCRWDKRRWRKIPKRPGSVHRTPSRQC
T1: RNA aptamer; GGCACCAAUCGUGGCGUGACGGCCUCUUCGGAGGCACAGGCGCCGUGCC
T2: riboswitch RNA yjdF aptamer (Bacillus subtilis); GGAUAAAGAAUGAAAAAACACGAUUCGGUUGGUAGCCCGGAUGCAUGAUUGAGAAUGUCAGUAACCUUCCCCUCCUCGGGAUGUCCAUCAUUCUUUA
T3: DNA aptamer A10G; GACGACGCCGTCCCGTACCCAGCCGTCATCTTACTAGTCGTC
Sequence of UniProt P00519 (whole entry, unmodified, looked up): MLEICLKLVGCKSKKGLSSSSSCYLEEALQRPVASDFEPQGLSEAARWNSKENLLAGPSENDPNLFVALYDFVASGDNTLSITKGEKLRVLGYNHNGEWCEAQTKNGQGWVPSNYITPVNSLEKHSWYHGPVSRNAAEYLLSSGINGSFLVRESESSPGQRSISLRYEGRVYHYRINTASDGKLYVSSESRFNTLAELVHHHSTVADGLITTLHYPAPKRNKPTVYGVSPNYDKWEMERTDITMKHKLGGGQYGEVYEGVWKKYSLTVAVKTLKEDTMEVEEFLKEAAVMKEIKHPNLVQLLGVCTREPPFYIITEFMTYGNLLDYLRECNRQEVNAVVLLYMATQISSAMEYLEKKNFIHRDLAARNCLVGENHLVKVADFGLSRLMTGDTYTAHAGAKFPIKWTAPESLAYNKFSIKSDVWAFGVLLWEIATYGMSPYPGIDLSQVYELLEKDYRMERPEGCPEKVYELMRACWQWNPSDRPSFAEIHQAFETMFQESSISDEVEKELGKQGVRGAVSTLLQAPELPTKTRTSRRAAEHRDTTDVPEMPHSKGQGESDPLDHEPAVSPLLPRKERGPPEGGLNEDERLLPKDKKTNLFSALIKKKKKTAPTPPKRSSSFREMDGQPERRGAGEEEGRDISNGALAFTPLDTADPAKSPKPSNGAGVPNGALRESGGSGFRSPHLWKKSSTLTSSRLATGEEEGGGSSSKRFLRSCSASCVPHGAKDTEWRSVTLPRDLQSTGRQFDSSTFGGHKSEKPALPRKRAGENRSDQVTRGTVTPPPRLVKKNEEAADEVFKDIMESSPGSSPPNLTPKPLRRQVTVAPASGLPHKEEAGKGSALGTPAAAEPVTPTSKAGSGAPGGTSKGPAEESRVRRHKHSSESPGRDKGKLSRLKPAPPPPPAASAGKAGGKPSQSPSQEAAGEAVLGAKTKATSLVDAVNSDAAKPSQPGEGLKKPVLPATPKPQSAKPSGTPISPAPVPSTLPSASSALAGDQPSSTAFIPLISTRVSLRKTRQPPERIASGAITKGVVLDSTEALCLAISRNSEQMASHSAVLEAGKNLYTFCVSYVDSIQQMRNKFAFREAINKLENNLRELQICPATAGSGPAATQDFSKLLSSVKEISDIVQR
Sequence of UniProt O76090 (whole entry, unmodified, looked up): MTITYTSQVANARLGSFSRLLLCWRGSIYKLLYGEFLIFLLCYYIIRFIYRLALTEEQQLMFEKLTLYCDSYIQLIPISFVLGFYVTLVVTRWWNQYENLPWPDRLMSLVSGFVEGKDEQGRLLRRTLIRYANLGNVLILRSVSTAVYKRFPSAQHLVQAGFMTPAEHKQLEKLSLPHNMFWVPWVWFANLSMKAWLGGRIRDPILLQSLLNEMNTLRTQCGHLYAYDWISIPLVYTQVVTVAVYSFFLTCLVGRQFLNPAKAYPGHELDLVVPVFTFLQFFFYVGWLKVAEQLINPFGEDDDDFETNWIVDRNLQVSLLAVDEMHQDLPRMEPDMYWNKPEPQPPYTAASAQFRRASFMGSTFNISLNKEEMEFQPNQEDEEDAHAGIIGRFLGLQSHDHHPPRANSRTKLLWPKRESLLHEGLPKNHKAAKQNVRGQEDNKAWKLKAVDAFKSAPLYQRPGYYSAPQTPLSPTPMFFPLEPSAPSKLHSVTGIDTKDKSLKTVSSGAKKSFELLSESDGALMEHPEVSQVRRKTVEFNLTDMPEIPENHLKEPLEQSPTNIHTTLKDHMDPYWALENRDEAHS
Sequence of UniProt Q16774 (whole entry, looked up): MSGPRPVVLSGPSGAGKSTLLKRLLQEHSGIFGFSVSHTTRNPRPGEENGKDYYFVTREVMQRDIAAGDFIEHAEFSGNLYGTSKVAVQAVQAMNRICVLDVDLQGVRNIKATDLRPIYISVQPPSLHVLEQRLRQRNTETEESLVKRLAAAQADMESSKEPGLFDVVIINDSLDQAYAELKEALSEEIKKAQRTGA
Sequence of UniProt P51575 (whole entry, unmodified, looked up): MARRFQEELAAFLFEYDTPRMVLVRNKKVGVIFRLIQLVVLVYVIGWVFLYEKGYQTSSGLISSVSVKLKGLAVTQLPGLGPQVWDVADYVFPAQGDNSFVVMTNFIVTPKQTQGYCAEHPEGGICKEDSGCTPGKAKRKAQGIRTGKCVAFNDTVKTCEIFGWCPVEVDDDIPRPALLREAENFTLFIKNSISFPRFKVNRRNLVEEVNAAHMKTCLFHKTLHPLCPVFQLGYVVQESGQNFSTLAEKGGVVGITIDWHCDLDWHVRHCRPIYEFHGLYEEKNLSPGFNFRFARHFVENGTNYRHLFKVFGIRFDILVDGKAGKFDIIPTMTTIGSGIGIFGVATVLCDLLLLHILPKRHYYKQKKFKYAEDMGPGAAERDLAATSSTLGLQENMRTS
Sequence of UniProt Q13133 (whole entry, looked up): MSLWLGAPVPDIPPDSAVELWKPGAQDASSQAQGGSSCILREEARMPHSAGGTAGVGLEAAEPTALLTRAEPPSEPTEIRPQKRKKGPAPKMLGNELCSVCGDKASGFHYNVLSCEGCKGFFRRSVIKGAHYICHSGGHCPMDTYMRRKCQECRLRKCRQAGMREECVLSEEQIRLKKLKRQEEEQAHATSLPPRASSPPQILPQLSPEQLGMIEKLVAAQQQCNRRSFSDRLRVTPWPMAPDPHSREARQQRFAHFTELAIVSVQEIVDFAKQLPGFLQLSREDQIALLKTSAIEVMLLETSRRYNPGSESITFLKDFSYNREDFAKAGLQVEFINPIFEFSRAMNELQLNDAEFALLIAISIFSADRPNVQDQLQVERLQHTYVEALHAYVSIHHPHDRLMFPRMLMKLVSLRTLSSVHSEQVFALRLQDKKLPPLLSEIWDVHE
Sequence of UniProt P11388 (whole entry, looked up): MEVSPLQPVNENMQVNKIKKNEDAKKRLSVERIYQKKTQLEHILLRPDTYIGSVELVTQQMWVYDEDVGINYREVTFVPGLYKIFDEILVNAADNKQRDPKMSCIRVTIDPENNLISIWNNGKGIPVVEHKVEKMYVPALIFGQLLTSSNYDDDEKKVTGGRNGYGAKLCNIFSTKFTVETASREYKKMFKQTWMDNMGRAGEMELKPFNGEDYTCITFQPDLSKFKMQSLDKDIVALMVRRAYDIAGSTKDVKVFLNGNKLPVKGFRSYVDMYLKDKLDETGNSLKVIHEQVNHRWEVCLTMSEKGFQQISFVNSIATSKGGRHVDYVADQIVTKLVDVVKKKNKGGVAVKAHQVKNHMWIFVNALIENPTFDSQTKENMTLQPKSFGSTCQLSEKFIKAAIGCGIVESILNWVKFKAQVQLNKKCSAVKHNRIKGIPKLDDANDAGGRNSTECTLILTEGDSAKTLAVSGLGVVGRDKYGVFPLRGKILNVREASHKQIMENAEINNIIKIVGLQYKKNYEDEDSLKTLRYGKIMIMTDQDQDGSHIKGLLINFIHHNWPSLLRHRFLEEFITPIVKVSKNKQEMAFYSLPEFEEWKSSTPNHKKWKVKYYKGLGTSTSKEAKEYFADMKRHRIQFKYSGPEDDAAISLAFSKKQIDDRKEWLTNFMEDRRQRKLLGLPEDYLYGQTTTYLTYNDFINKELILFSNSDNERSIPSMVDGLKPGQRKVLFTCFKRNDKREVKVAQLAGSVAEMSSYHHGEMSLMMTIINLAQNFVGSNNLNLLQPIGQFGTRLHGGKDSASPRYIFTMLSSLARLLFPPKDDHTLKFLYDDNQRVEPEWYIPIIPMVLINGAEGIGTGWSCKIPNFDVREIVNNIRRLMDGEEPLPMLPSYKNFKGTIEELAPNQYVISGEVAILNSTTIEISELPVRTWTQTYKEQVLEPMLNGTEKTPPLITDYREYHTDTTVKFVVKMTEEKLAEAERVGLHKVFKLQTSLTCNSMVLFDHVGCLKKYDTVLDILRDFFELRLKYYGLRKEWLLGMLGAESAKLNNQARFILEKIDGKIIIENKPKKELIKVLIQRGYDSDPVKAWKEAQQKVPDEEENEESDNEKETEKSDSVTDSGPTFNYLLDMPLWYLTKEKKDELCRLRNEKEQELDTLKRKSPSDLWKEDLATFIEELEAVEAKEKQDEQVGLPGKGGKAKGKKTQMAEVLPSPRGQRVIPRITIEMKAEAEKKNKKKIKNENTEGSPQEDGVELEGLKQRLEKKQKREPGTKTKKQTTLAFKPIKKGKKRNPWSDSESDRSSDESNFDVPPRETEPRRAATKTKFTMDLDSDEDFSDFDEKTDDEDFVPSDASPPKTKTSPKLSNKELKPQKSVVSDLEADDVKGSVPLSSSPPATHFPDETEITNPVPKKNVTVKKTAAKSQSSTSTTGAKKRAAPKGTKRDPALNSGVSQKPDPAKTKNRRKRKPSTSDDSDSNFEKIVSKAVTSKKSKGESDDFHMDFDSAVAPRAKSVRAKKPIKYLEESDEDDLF

With `O=C(c1ccc(Nc2ncc(Cl)c(-c3cc4ccccc4s3)n2)cc1)N1CCC(N2CCCC2)CC1` the ligand efficiency was 0.3 (Protein kinase 6; binding, KinaseSeeker split luciferase).
With `O=C1C[C@@H](c2ccccc2)Oc2cc(O)cc(O)c21` the fold change was 1.13 (Aryl hydrocarbon receptor; reporter gene, agonist, luciferase reporter; ZF-4; 3333.33 µM; reference: vehicle control).
`CN(C)C(=O)C(CCN1CCC(O)(c2ccc(Cl)cc2)CC1)(c1ccccc1)c1ccccc1` has a V1/2 of 14 ± 4 mV (Calcium-activated potassium channel subunit alpha-1, with LRRC26 γ1 subunit (KCNMA1, Homo sapiens, UniProt Q12791); ion current, inside-out patch, mean of individual fits; BKα/γ1 channel; 0.3 µM, together with: nominally 0 Ca2+).
`CCCCCCCCCCCCC/C=C/[C@@H](O)[C@H](CO)NC(=O)CCCCCCCCCCCCC` — result for “lipid fraction bound”: 8.6% (SET; lipid binding, GFP pull-down LC-MS/MS; A549 overexpressing GFP-tagged protein; ER-targeted construct; reference: eluate plus flow-through).
`O=C(NO)c1ccc(CN2CCCCc3ccccc32)c(F)c1` gave an inhibition of 13.7% (CHRM1; radioligand binding, radioligand displacement; 10 µM).
`O=c1nc(SCc2cc(F)cc(C(F)(F)F)c2)nc(SCc2ccc3sccc3c2)[nH]1`: “ATP hydrolysis rate” 1.56 µM/min and 0.83 µM/min (TOP2A (Homo sapiens, UniProt P11388); ATPase activity; 15.6 µM, together with: ATP 0.75 mM).
For `CCCCCCCCC(=O)c1cc(O)c(O)c(O)c1`, the activation was 2.4 fold (NR1H3 (Homo sapiens, UniProt Q13133); reporter gene, Gal4 hybrid reporter; 10 µM; reference: vehicle).
`CN(CCO)c1ccc(/C=C(\C#N)c2ccc(C#N)cc2)cc1` gave a Kd of 0.0715 µM (T1, RNA aptamer; fluorescence titration, Hill fit; apparent).
`Cc1cc2nc3[nH]c(=O)[nH]c(=O)c3nc2cc1C` has a Kd of 3.4 µM (T2, riboswitch RNA yjdF aptamer (Bacillus subtilis); fluorescence titration; together with: 380 nM lumichrome).
`c1cnn2ncc(-c3ccnc(N4CCC45COC5)n3)c2c1` has a remaining binding of 61% (ABL1 (Homo sapiens, UniProt P00519, Q252H); KINOMEscan; 1 µM; reference: control).
For `O=C(COP(=O)(O)O)[C@@H](O)[C@H](O)[C@H](O)COP(=O)(O)O`, “thermal stability ratio” read 4.79 (PMM2 (Homo sapiens, UniProt O15305); thermal proteome profiling; HepG2 cell lysate; concentration not given, 57 over 37 °C, mean; reference: compound over control).
`O=[N+]([O-])c1cc(C(F)(F)F)ccc1NCc1ccsc1` has a koff of 0.79 ± 0.06 s⁻¹ (Endothelial PAS domain-containing protein 1, PAS-B domain (EPAS1, Homo sapiens, UniProt Q99814, N288Q); ZZ-exchange NMR; 25 °C).
Under “maximal ACh response”, `Cc1ccc(Cn2nc3c4ccccc4n(Cc4ccc(-c5cnn(C)c5)cc4F)cc-3c2=O)c(C)c1` is recorded as 74% (CHRM1; calcium mobilization, positive allosteric modulator; CHO-K1 cells; 30 µM, together with: submaximal acetylcholine).
With `CCOC(=O)C(C)c1n[nH]c2nc(N)[nH]c(=O)c2c1=O` (stereo not shown) the melting temperature was 55.5 °C (folP (Bacteria, UniProt P0AC13); CETSA HiBiT; Escherichia coli, whole cells).
The Kd of `CC1(C)S[C@@H]2[C@H](NC(=O)[C@H](N)c3ccccc3)C(=O)N2[C@H]1C(=O)O` is reported as 89.8 µM (T3, DNA aptamer A10G; competition, fluorescence displacement; apparent, together with: ThT 10 µM).
`CCCCCCCCCCCCC/C=C/[C@@H](O)[C@H](CO)NC(=O)CCCCCCCCCCCCCCCCCCCCCCCCC` — result for “bound endogenous lipid”: 7.1 (SET; lipid binding, GFP pull-down LC-MS/MS; A549 overexpressing GFP-tagged protein; unit not given; reference: vector-transfected cells).
`CNC[C@H](O)c1cccc(O)c1` has an Emax of roughly 25% (ADRA1D (Homo sapiens, UniProt P25100); calcium mobilization, agonist; COS-7, stably expressing receptor; reference: 3 µM ionomycin).
`OC[C@H]1OC(O)[C@H](O)[C@@H](O)[C@@H]1O` (stereo partly shown) — result for “V∞/Vmax ratio (b)”: 0.6 ± 0.01 (Hexokinase-3 (HK3, Homo sapiens, UniProt P52790, R807A); substrate inhibition; mutant R807A, partial substrate inhibition model, together with: ATP 20 mM).
`NCCCS(=O)(=O)O`: “normalised MST signal” -0.0766 (SLC6A6 (Homo sapiens, UniProt P31641, Y138A); binding, microscale thermophoresis; 61 nM, room temperature, together with: 50 nM labelled protein; higher = more binding).
For `CC1CCCN(C(=O)c2cc3ncccn3n2)C1` (stereo not shown), “log fold enrichment” read 0.0318 (DDB1- and CUL4-associated factor 7 (Homo sapiens, UniProt P61962); binding, affinity selection mass spectrometry; reference: other proteins in batch).
`C[C@H](N)C(=O)O` — result for “number of binding sites”: 0.92 ± 0.03 (Lysozyme C (LYZ, Gallus gallus, UniProt P00698); intrinsic fluorescence; concentration not given, pH 6.9, 25 °C, lysozyme 10 µM).
The fold change of `Cc1cccc2c1ccc1cc(C(C)C)ccc12` is reported as 0.765 (Aryl hydrocarbon receptor; reporter gene, agonist, luciferase reporter; ZF-4; 10000 µM; reference: vehicle control).
For `Nc1ncnc2c1ncn2[C@@H]1O[C@H](COP(=O)(O)CP(=O)(O)OP(=O)(O)O)[C@@H](O)[C@H]1O`, the specific binding was 3550 CCPM and 3000 CCPM (P2X purinoceptor 1 (P2RX1, Homo sapiens, UniProt P51575, K136A); saturation binding; HEK293; 103 nM).
For `CC1=C[C@H](O)CC(C)(C)[C@H]1/C=C/C(C)=C/C=C/C(C)=C/C=C/C=C(C)/C=C/C=C(C)/C=C/C1=C(C)C[C@@H](O)CC1(C)C`, “number of binding sites” read 1.33 (Beta-lactoglobulin (LGB, Bos taurus, UniProt P02754); fluorescence quenching; concentration not given, 303 K).
`COc1cc(-c2cncc3c2CN(C)Cc2cc(N4CCNCC4)ccc2-3)cc(OC)c1OC` has a remaining activity of 114% (PRKAA2 (Homo sapiens, UniProt P54646); kinase activity; 1 µM, human enzyme, together with: ATP 10 µM; reference: DMSO control).
For `CN(C)c1nccc(-c2cnc3ncccn23)n1`, the remaining binding was 68% (ABL1 (Homo sapiens, UniProt P00519, T315I); KINOMEscan; 1 µM).
With `CC[C@H](C)[C@H](NC(=O)[C@H](CO)NC(=O)[C@H](CCCCN)NC(=O)[C@H](Cc1ccccc1)NC(=O)[C@@H](NC(=O)[C@H](CCC(=O)O)NC(=O)[C@H](Cc1ccc(O)cc1)NC(=O)[C@@H](NC(=O)[C@H](CCCNC(=N)N)NC(=O)[C@H](CCCCN)NC(=O)[C@H](CCCNC(=N)N)NC(=O)[C@H](CCCCN)NC(=O)[C@H](CCC(=O)O)NC(=O)[C@H](CCC(=O)O)NC(=O)[C@@H](NC(=O)[C@H](CCCNC(=N)N)NC(=O)[C@H](Cc1c[nH]cn1)NC(=O)[C@H](CCCNC(=N)N)NC(=O)[C@H](CC(=O)O)NC(=O)[C@H](CC(=O)O)NC(=O)[C@@H](NC(=O)[C@H](CC(=O)O)NC(=O)[C@@H]1CCCN1C(=O)[C@@H](N)CC(C)C)[C@@H](C)O)[C@@H](C)CC)[C@@H](C)O)[C@@H](C)O)C(=O)N[C@@H](C)C(=O)N[C@@H](CCCCN)C(=O)N[C@@H](CCCCN)C(=O)N[C@@H](CO)C(=O)N1CCC[C@H]1C(=O)N[C@@H](Cc1ccccc1)C(=O)N[C@@H](CC(N)=O)C(=O)NCC(=O)N1CCC[C@H]1C(=O)O` the -TΔS was -21.34 ± 0.167 kJ/mol (NF-kappa-B inhibitor alpha (Homo sapiens, UniProt P25963); binding, ITC; pH 7.5, 293 K, 50 mM NaCl).
`COc1cc(Nc2ncc3c(n2)-c2ccc(Cl)cc2C(c2c(F)cccc2OC)=NC3)ccc1C(=O)O` gave a remaining activity of 104% (CK1 epsilon (CSNK1E); inhibitor, biochemical kinase; 1 µM).
For `CC[C@@H]1[C@H](F)C(=O)N[C@@H]1COc1nccc2cc(C(N)=O)c(OC)cc12`, the inhibition was -2.2% (ATM (Homo sapiens, UniProt Q13315); ATP-site probe binding, ActivX profiling; THP-1 cell lysate; 0.2 mM).
For `COc1cccc(C(=O)C#Cc2ccc(F)c(F)c2)c1`, the binding was 88% (mvfR (Pseudomonas aeruginosa, UniProt Q9I4X0); receptor binding; concentration not given, 1.5 h, together with: PQS at 1:1 ratio; reference: control).
With `C[C@@H]1CCN(c2nccc(-c3cnn4ncccc34)n2)C1` the remaining binding was 70% (ABL1 (Homo sapiens, UniProt P00519, H396P); KINOMEscan; 1 µM).
`c1ccc2c(c1)-c1cccc3c1c-2cc1ccccc13` has a fold change of 6.68 (Aryl hydrocarbon receptor; reporter gene, agonist, luciferase reporter; ZF-4; 41.15 µM; reference: vehicle control).
With `Nc1ccc(C(=O)O)cc1` the current density was -0.09 pA/pF and 0.04 pA/pF and 0 pA/pF and 0.16 pA/pF and -0.13 pA/pF and -0.03 pA/pF (BEST1, with wild-type BEST1 (Homo sapiens, UniProt O76090, A243T); whole-cell patch clamp; HEK293 co-expressing WT and A243T mutant; concentration not given, membrane potential 0 mV).
`Cc1ccc(N(C)C(=O)/C=C/c2ccco2)cc1`: potentiation EC50 “inactive” (Nicotinic acetylcholine receptor alpha9/alpha10 (Rattus norvegicus, UniProt P43144+Q9JLB5); positive allosteric modulator; rat α9α10 expressing cells; together with: ACh 10 µM).
`O=S(=O)(O)C1CCNCC1` gave a maximal response of 89% (GABA-A receptor; alpha-1/beta-2/gamma-2 (Rattus norvegicus, UniProt P18508+P62813+P63138); chloride current, agonist, whole-cell patch clamp; HEK293 expressing GABAA; 30 s; reference: maximum).
`Cc1cc2ccccc2c2ccc3ccccc3c12` gave a fold change of 4.63 (Aryl hydrocarbon receptor; reporter gene, agonist, luciferase reporter; ZF-4; 370.37 µM; reference: vehicle control).
`COCCN1CCN(Cc2ccc(-c3n[nH]c4c3C(=O)c3c(NC(=O)NN5CCOCC5)cccc3-4)cc2)CC1` gave a Tm of 40 °C (Protein kinase 6; differential scanning fluorimetry; 10 µM).
With `Nc1nc2c(ncn2[C@@H]2O[C@H](COP(=O)(O)O)[C@@H](O)[C@H]2O)c(=O)[nH]1` the reaction rate was 37.9 s⁻¹ and 39.7 s⁻¹ and 42 s⁻¹ (GUK1 (Homo sapiens, UniProt Q16774); enzyme activity, NADH-coupled; 250 µM).
Under “bound endogenous lipid”, `CCCCCCCCCCCCC/C=C/[C@@H](O)[C@H](CO)NC(=O)CCCCCCCCCCCCCCCCC` is recorded as 43.2 (Protein SET (SET, Homo sapiens, UniProt Q01105, Y135C); lipid binding, GFP pull-down LC-MS/MS; A549 overexpressing GFP-tagged protein; unit not given; reference: vector-transfected cells).
`Cc1ccc(NC(=O)NCc2ccc3c(c2)CN(C2CCC(=O)NC2=O)C3=O)cc1Cl` (stereo not shown) has a Dmax of 71 ± 8% (Sal-like protein 4 (SALL4, Homo sapiens, UniProt Q9UJQ4); degrader, immunofluorescence; C33A).
`CO[C@H]1O[C@H](COS(=O)(=O)O)[C@@H](O[C@@H]2O[C@@H](C(=O)O)[C@@H](O[C@H]3O[C@H](COS(=O)(=O)O)[C@@H](O[C@@H]4O[C@H](C(=O)O)[C@@H](O[C@H]5O[C@H](COS(=O)(=O)O)[C@@H](O)[C@H](O)[C@H]5NS(=O)(=O)O)[C@H](O)[C@H]4O)[C@H](OS(=O)(=O)O)[C@H]3NS(=O)(=O)O)[C@H](O)[C@H]2OS(=O)(=O)O)[C@H](O)[C@H]1NS(=O)(=O)O`: “binding free energy ΔG” -25.2 kJ/mol (Beta-2-glycoprotein 1, domain V (APOH, Homo sapiens, UniProt P02749, V266L); isothermal titration calorimetry; 298 K, together with: 150 mM NaCl).
The Emax of `COC(=O)c1ccc(C(=O)c2c[nH]c3ccccc23)s1` is reported as 67 ± 8% (AHR (Homo sapiens, UniProt P35869); reporter gene, agonist, XRE luciferase; HepG2; reference: ITE).
With `Cn1c2c(c3ccc(Cl)c(Cl)c31)C(C#N)C1(CCNCC1)NC2=O` (racemic) the ΔTm was 1.7 °C (RPS6KA2 (Homo sapiens, UniProt Q15349); thermal shift; 10 µM, 2 µM protein; higher = stronger binding).

Some of these lines once more:
`COc1cc(-c2cncc3c2CN(C)Cc2cc(N4CCNCC4)ccc2-3)cc(OC)c1OC` has a remaining activity of 114% (PRKAA2 (Homo sapiens, UniProt P54646); kinase activity; 1 µM, human enzyme, together with: ATP 10 µM; reference: DMSO control).
Under “maximal ACh response”, `Cc1ccc(Cn2nc3c4ccccc4n(Cc4ccc(-c5cnn(C)c5)cc4F)cc-3c2=O)c(C)c1` is recorded as 74% (CHRM1; calcium mobilization, positive allosteric modulator; CHO-K1 cells; 30 µM, together with: submaximal acetylcholine).
With `C[C@@H]1CCN(c2nccc(-c3cnn4ncccc34)n2)C1` the remaining binding was 70% (ABL1 (Homo sapiens, UniProt P00519, H396P); KINOMEscan; 1 µM).
The Emax of `COC(=O)c1ccc(C(=O)c2c[nH]c3ccccc23)s1` is reported as 67 ± 8% (AHR (Homo sapiens, UniProt P35869); reporter gene, agonist, XRE luciferase; HepG2; reference: ITE).
For `CN(C)c1nccc(-c2cnc3ncccn23)n1`, the remaining binding was 68% (ABL1 (Homo sapiens, UniProt P00519, T315I); KINOMEscan; 1 µM).
